Experimental data of several laboratories.
Lines come from different studies, so protocols differ. Several values in a cell are separate wells, animals, samples, runs or records. ± gives the spread as reported.
CSNK1D: Casein kinase I isoform delta (CSNK1D, Homo sapiens, UniProt P48730)
Chain of UniProt P48730 (whole entry, looked up): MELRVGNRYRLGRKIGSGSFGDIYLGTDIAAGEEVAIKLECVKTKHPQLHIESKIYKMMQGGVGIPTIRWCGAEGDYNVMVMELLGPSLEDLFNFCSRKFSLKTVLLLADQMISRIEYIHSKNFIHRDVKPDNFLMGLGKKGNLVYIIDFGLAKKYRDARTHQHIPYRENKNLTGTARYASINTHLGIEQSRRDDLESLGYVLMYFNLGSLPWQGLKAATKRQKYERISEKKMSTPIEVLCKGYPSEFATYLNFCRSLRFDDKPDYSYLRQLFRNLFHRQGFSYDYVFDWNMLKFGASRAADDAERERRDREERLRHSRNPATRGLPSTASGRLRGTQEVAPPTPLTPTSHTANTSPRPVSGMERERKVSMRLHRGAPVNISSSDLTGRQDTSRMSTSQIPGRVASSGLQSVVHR
Protein AF-9 with DOT1L: Protein AF-9, with DOT1L (Homo sapiens, UniProt P42568)
Chain of UniProt P42568 (whole entry, looked up): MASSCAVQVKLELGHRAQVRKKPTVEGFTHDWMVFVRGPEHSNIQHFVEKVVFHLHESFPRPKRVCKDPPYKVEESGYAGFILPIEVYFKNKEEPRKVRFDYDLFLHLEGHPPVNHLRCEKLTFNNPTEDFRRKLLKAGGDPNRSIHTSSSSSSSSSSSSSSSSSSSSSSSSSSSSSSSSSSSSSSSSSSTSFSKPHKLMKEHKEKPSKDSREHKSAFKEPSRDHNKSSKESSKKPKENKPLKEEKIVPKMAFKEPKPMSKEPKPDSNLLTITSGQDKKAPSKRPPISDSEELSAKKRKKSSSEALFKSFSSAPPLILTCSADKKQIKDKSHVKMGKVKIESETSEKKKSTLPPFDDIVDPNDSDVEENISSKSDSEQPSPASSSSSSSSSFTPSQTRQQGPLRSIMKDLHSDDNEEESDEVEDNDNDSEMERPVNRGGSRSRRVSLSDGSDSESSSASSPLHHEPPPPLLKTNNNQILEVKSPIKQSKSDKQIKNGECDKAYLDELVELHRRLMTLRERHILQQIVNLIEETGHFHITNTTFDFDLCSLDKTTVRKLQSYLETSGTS
Dihydrofolate reductase type 2: Dihydrofolate reductase type 2 (Escherichia coli, UniProt P00383)
Chain of UniProt P00383 (whole entry, looked up): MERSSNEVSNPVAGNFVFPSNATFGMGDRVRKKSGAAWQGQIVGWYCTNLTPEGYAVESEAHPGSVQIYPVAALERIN
F2: Prothrombin (F2, Homo sapiens, UniProt P00734)
Proteasome component C5/PSMB5: Proteasome component C5/PSMB5 (Homo sapiens, UniProt P20618+P28074)
Chain of UniProt P20618 (whole entry, looked up): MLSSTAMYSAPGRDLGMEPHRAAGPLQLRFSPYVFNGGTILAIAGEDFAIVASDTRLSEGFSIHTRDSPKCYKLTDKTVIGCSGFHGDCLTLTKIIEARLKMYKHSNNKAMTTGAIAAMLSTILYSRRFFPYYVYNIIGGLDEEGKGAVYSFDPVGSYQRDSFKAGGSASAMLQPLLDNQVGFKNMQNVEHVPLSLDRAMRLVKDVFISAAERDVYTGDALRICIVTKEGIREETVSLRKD
Chain of UniProt P28074 (whole entry, looked up): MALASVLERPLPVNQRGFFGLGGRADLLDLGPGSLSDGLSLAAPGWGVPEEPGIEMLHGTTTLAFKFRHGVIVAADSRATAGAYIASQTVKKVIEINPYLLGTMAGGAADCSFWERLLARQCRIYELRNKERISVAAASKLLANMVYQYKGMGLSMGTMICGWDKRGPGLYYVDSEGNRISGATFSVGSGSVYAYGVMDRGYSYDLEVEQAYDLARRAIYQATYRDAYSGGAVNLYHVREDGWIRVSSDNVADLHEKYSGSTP
CYP2E1: Cytochrome P450 2E1 (CYP2E1, Homo sapiens, UniProt P05181)
Chain of UniProt P05181 (whole entry, looked up): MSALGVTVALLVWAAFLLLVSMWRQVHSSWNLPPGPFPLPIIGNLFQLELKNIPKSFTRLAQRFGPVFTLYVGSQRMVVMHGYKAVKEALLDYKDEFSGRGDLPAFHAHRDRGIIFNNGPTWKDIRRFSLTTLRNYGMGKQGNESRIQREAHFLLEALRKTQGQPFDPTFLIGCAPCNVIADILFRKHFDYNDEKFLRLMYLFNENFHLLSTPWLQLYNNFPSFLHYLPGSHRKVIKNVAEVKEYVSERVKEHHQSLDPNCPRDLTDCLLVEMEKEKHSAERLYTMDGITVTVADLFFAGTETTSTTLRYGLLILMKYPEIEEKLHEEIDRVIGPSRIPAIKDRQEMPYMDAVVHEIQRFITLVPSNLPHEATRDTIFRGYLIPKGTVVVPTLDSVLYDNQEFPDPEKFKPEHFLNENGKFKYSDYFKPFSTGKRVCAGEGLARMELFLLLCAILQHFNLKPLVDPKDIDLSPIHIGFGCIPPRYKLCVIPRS
RET: Proto-oncogene tyrosine-protein kinase receptor Ret (RET, Homo sapiens, UniProt P07949)
Chain of UniProt P07949 (whole entry, looked up): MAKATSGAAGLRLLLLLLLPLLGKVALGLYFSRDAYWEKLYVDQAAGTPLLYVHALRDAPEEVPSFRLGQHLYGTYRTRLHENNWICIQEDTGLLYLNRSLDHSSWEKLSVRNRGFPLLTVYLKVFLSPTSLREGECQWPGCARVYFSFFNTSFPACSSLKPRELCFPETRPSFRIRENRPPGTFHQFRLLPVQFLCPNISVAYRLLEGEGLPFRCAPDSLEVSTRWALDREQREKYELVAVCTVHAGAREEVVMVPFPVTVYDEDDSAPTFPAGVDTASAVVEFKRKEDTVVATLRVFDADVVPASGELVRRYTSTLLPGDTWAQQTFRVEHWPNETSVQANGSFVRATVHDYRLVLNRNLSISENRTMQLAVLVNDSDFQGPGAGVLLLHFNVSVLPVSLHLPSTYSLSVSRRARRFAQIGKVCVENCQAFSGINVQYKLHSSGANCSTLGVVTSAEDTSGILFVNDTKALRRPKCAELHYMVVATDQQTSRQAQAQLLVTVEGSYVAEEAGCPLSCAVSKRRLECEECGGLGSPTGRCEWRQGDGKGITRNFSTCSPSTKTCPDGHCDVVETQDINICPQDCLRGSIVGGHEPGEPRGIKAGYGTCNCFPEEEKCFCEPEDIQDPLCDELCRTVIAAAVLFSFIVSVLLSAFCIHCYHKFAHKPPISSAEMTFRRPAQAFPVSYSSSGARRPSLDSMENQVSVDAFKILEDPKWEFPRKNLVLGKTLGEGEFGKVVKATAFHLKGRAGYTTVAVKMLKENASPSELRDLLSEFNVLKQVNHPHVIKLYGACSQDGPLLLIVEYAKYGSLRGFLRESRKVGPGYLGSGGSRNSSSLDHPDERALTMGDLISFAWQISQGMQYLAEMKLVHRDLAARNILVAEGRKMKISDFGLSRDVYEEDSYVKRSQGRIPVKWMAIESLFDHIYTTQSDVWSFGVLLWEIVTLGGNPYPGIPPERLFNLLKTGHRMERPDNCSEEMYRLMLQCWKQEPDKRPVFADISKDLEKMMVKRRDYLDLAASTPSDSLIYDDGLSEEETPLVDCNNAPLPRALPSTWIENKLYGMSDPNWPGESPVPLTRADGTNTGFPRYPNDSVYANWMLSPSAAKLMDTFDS
Phospholipase A2, membrane associated: Phospholipase A2, membrane associated (Homo sapiens, UniProt P14555)
Chain of UniProt P14555 (whole entry, looked up): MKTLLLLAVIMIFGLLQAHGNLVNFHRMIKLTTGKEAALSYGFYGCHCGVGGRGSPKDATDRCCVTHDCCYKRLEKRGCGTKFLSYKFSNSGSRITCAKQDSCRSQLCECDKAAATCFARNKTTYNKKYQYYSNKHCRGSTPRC
PSMB5: Proteasome Macropain subunit MB1 (PSMB5, Homo sapiens, UniProt P28074)
SLCO1B1: Solute carrier organic anion transporter family member 1B1 (SLCO1B1, Homo sapiens, UniProt Q9Y6L6)
Chain of UniProt P37231 (whole entry, looked up): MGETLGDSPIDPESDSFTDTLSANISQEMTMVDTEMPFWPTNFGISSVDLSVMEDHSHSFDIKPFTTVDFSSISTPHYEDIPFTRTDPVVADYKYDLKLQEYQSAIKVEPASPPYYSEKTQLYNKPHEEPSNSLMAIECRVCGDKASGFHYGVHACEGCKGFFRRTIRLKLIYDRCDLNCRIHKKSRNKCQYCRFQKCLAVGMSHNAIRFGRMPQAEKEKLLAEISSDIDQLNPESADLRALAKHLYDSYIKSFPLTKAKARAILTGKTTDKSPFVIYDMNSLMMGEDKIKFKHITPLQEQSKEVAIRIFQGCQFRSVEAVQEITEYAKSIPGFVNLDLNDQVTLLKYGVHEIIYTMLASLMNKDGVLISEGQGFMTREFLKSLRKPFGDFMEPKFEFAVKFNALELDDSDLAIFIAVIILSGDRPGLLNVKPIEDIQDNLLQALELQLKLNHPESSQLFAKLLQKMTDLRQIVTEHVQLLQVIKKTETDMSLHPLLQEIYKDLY
Chain of UniProt Q9Y6L6 (whole entry, looked up): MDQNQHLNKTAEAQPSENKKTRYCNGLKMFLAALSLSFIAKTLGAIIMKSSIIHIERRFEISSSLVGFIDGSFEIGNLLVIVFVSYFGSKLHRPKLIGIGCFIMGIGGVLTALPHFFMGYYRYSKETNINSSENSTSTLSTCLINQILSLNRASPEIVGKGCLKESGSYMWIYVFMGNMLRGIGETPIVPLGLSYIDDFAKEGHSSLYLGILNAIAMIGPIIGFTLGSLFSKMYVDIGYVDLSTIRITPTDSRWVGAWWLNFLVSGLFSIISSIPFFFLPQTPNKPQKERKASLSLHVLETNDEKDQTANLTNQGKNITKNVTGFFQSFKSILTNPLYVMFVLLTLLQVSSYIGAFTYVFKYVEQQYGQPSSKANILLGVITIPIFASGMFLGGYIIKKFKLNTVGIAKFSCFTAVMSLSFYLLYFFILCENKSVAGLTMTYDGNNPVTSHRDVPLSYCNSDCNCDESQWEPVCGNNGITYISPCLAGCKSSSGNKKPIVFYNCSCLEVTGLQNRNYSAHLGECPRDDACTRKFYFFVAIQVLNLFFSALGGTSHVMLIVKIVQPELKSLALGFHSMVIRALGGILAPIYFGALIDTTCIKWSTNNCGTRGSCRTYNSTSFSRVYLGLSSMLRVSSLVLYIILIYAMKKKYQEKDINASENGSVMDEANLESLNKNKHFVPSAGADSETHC
Chain of UniProt Q01782 (whole entry, looked up): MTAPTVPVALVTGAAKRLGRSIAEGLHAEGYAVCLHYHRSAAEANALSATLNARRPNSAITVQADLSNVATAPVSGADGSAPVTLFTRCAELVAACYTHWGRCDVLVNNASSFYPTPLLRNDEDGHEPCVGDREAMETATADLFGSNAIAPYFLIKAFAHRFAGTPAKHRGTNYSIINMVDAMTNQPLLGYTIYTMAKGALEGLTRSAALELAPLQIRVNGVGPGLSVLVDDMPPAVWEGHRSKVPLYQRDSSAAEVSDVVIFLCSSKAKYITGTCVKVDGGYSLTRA

SMILES	target	assay	system	setting	IC50
COc1cccc(OC)c1-c1nc(-c2ccc(F)cc2)c(-c2ccncc2)[nH]1	CSNK1D	inhibitor			0.298 ± 0.0279 µM
CC(C)c1ccc(Nc2ccc3ncc(OCC4CCNCC4)nc3c2)cc1	Protein AF-9 with DOT1L	DOT1L binding, AlphaLISA			9.4 µM
CC(C)C[C@H](NC(=O)[C@H](CCc1ccccc1)NC(=O)CN1CCOCC1)C(=O)N[C@@H](Cc1ccccc1)C(=O)N[C@@H](CC(C)C)C(=O)[C@@]1(C)CO1	Proteasome subunit beta type-9 (Mus musculus, UniProt P28076)	proteasome subunit activity	Ba/F3 BCR-ABL1 p210	1 h pulse	0.25 ± 0.237 µM
O=C(NCCO)c1ccc2nc(-c3ccc(OCCCOc4ccc(-c5nc6ccc(C(=O)NCCO)cc6[nH]5)cc4Br)c(Br)c3)[nH]c2c1	Dihydrofolate reductase type 2	enzyme activity		pH 7	> 50 µM
COc1ccnc(CNC(=O)c2cn(Cc3ccc(Cn4ccccc4=O)cc3)nc2C2CC2)c1F	F2				35 µM
Fc1ccc(-c2nc(-c3c(F)cccc3F)[nH]c2-c2ccncc2)cc1	CSNK1D	inhibitor			0.0212 ± 0.0024 µM
CCCCN(NC(=O)[C@H](CC(C)C)NC(=O)[C@H](CC(C)C)NC(=O)OCc1ccccc1)C(=O)C(C)=O	Proteasome component C5/PSMB5	β5 chymotrypsin-like activity, inhibitor		together with: Suc-LLVY-AMC 100 µM	15.1 ± 3.6 µM
COc1cccc(CNC(=O)c2cn(Cc3ccc(Cn4ccccc4=O)cc3)nc2C2CC2)c1F	F2				> 40 µM
CCOC(=O)/C=C/C(=O)N(CC(C)C)NC(=O)[C@H](CC(C)C)NC(=O)[C@H](CC(C)C)NC(=O)OCc1ccccc1	Proteasome component C5/PSMB5	chymotrypsin-like activity, inhibitor	human 20S proteasome	together with: Suc-LLVY-AMC 100 µM	3.7 ± 2.6 µM
C=Cc1ccccc1	CYP2E1	enzyme activity, inhibitor		30 (unit not given), pH 7.4	74 µM
CCOC(=O)C1CCCN1C(=O)c1ccc(NCc2cnc3nc(N)nc(N)c3n2)cc1 (stereo not drawn)	Pteridine reductase 1 (Leishmania major, UniProt Q01782)			estimated	> 100 µM
Nc1nc(SCC(=O)Nc2ccc3c(c2)OCO3)[nH]c(=O)c1NC(=O)c1ccc(F)c(F)c1	RET	kinase activity, inhibitor		replicate two, together with: 1 µM ATP, poly(Glu,Tyr)	73 µM
COc1cc(/C=N/n2c(C)nc3ccc(C)cc3c2=O)ccc1OCc1ccccc1	Phospholipase A2, membrane associated	enzyme activity, inhibitor, colorimetric			93.7 ± 4.28 µM
CC1CC(C)CN(c2ccc(C=NNc3nc(-c4ccc(Cl)c(Cl)c4)cs3)cc2)C1 (stereo not drawn)	alpha-glucosidase	enzyme activity, inhibitor		together with: p-nitrophenyl-alpha-D-glucopyranoside	17.8 µM
CN(C)c1ccc(Nc2ccc3ncc(OCC4CCNCC4)nc3c2)cc1	Protein AF-9 with DOT1L	DOT1L binding, AlphaLISA			2.1 µM
Cc1ncc(C(=O)N[C@@H](CC(C)C)C(=O)N[C@@H](CC2CCC(C)CC2)C(=O)N[C@H](/C=C/S(C)(=O)=O)Cc2ccc(CN)cc2)s1 (stereo partly drawn)	PSMB5	competitive ABPP	Raji cell lysate		> 10 µM
N=C(N)c1ccc(CNC(=O)c2cnn(Cc3ccccc3)c2)cc1	Plasminogen (PLG, Homo sapiens, UniProt P00747)				5.7 µM
Cc1ncc(C(=O)N[C@@H](CC2CCC(C)CC2)C(=O)N[C@@H](CC(C)C)C(=O)N[C@H](/C=C/S(C)(=O)=O)Cc2ccc(CN)cc2)s1 (stereo partly drawn)	PSMB5	competitive ABPP	Raji cell lysate		> 10 µM
O[C@@H]1[C@@H](O)[C@@H]2O[C@@H]2[C@H](Cn2cc(CCCOCc3ccc(-c4ccccc4)cc3)nn2)[C@H]1O	Lysosomal acid glucosylceramidase (GBA1, Homo sapiens, UniProt P04062, R534H)				0.001 µM
CCn1cc(C(=O)Nc2cccc(O)c2)c(=O)c2cc(F)c(N3CCN(C(C)=O)CC3)cc21	RET	kinase activity, inhibitor		replicate three, together with: 1 µM ATP, poly(Glu,Tyr)	18.1 µM
CC(C)C[C@H](NC(=O)[C@H](CCc1ccccc1)NC(=O)CN1CCOCC1)C(=O)N[C@@H](Cc1ccccc1)C(=O)NN(CC(C)C)C(=O)/C=C/C(=O)NCc1ccccc1	Proteasome component C5/PSMB5	chymotrypsin-like activity, inhibitor	human 20S proteasome	together with: Suc-LLVY-AMC 100 µM	0.2 ± 0.1 µM
Fc1ccc(-c2nc(-c3ccc4ccccc4c3F)[nH]c2-c2ccncc2)cc1	CSNK1D	inhibitor			0.015 ± 0.003 µM
c1cc(-c2cc3ncc(OCC4CCNCC4)nc3cc2-c2cccc(N3CCCCC3)c2)cc(N2CCCCC2)c1	Protein AF-9 with DOT1L	DOT1L binding, AlphaLISA			1.9 ± 0.15 µM
CC1=CC(=O)c2ccccc2C1=O	Protein-glutamine gamma-glutamyltransferase (TGM2, Homo sapiens, UniProt P21980)	enzyme activity, inhibitor, BP incorporation		together with: no DTT, Triton 0.02%	5.5 ± 2 µM
O=C(Nc1ccc(OCCF)cc1)c1cc([N+](=O)[O-])ccc1Cl	Peroxisome proliferator-activated receptor gamma, with RXR (PPARG, Homo sapiens, UniProt P37231)	reporter gene, antagonist, PPRE-TK-luciferase	transfected HepG2	24 h, together with: GW1929	0.06 µM and 0.0631 µM
Cc1cc(OC(C)C)ccc1C(=O)C(C)(C)NC(=O)c1sccc1C	cytochrome bc1 complex (Corynespora cassiicola, UniProt A0A2T2NJU0+A0A2T2P1V1+A0A2T2PCF5)	succinate-cytochrome c reductase activity	Corynespora cassiicola, mitochondrial fraction	25 °C	0.00195 µM

SMILES	target	assay	system	setting	IC50
c1ccc(CN(CCN(Cc2ccccn2)Cc2ccccn2)Cc2ccccn2)cc1	PSMB5	chymotrypsin-like activity, inhibitor, purified 20S proteasome		30 min, pH 7.4, 37 °C, together with: 20 µM Suc-LLVY-AMC	96 µM
Cc1ncc(C(=O)N[C@@H](CC(C)C)C(=O)N[C@@H](CCC2CCCCC2)C(=O)N[C@H](/C=C/S(C)(=O)=O)Cc2ccc(CN)cc2)s1	PSMB5	inhibitor, competitive ABPP	Raji cell lysate	constitutive proteasome β5c	3.63 µM
COc1ccc(-c2nc3ccc(C(=O)N4CCN(C)CC4)cc3[nH]2)cc1Br	Dihydrofolate reductase type 2	enzyme activity		pH 7	> 2500 µM
COc1cc(/C=N/n2c(C)nc3ccc(Br)cc3c2=O)ccc1O	Phospholipase A2, membrane associated	enzyme activity, inhibitor, colorimetric			30.3 ± 0.35 µM
CN1CCN(c2ccc(Nc3ncc4cc(C#N)c(=O)n(C5CCCC5)c4n3)cc2)CC1	Serine/threonine-protein kinase pim-1 (PIM1, Homo sapiens, UniProt P11309)				0.875 µM
C=CC(=O)Nc1cc(Nc2nccc(-c3cn(C)c4ccccc34)n2)c(OC)cc1N(C)CCN(C)C	SLCO1B1	transport			22 µM
COc1cccc2c(N3CCC(CCP(=O)(O)O)CC3)ncnc12	Ectonucleotide pyrophosphatase/phosphodiesterase family member 3 (Homo sapiens, UniProt O14638)	cGAMP hydrolysis, inhibitor		overnight, together with: cGAMP 2 µM	0.8 µM
CC(C)(C)OC(=O)N1CCN(Cc2ccn(Cc3ccc(Cl)cc3)c(=O)c2O)CC1	Prolyl hydroxylase EGLN2 (EGLN2, Homo sapiens, UniProt Q96KS0)	enzyme activity, inhibitor, AlphaScreen		together with: CODD peptide, Fe(II) 10 µM	4.8 µM
Cc1ncc(C(=O)N[C@@H](CC(C)C)C(=O)N[C@@H](CC2CCC3CCCCC3C2)C(=O)N[C@H](/C=C/S(C)(=O)=O)Cc2ccc(CN)cc2)s1 (stereo partly drawn)	PSMB5	inhibitor, competitive ABPP	Raji cell lysate	constitutive proteasome β5c	1.2 µM
Cc1cnn(Cc2ccc(Cn3cc(C(=O)NCc4ccc5c(N)nccc5c4)cn3)cc2)c1	F2				> 40 µM
Fc1ccc(Oc2ccc(Nc3ccc4ncc(OCC5CCNCC5)nc4c3)cc2)cc1	Protein AF-9, with AF4 (Homo sapiens, UniProt P42568)	AlphaScreen			1 ± 0.07 µM
Cc1cccc(-c2nc(C#CCCO)[nH]c2-c2ccncc2)c1	CSNK1D	inhibitor			0.303 ± 0.0197 µM
O=C(c1ccc2nc(-c3ccc(OCCCOc4ccc(-c5nc6ccc(C(=O)N7CCOCC7)cc6[nH]5)cc4Br)c(Br)c3)[nH]c2c1)N1CCOCC1	Dihydrofolate reductase type 2	enzyme activity		pH 7	> 100 µM
Fc1ccc(-c2nc(-c3cccnc3)[nH]c2-c2ccncc2)cc1	CSNK1D	inhibitor			0.0751 ± 0.0081 µM
CCn1c(-c2nc3ccc(C(=O)N4CCCC(N)C4)cc3n2C)cc2ccccc21 (stereo not drawn)	Alpha-1B adrenergic receptor (ADRA1B, Homo sapiens, UniProt P35368)	intracellular calcium, antagonist, luminescence			3.98 µM
CNC(=O)c1ccc2nc(-c3ccc(OCCCOc4ccc(-c5nc6ccc(C(=O)NC)cc6[nH]5)cc4Br)c(Br)c3)[nH]c2c1	Dihydrofolate reductase type 2	enzyme activity		pH 7	> 100 µM
COc1cc(-c2cc(C(C)=O)n3ccccc23)c(OC)cc1Cn1ccnc1	Bromodomain-containing protein 9 (BRD9, Homo sapiens, UniProt Q9H8M2)	inhibitor			0.0053 µM
CC[C@@H]1[C@H](F)C(=O)N[C@@H]1COc1nccc2cc(C(N)=O)c(OC)cc12	Phosphatidylinositol 4-kinase beta (PI4KB, Homo sapiens, UniProt Q9UBF8)	ATP probe binding, KiNativ profiling, measured: ATP probe site	THP-1 cell lysate		> 5 µM
COC[C@H](NC(=O)[C@H](CC(C)C)NC(=O)[C@H](Cc1ccccc1)N=[N+]=[N-])C(=O)N[C@H](/C=C/S(C)(=O)=O)Cc1ccc(CN)cc1	PSMB5	competitive ABPP	Raji cell lysate		> 10 µM
CCS(=O)(=O)N1CC(CC#N)(n2cc(-c3ncnc4[nH]ccc34)cn2)C1	SLCO1B1	transport, inhibitor	human, SLCO1B1-expressing cells	together with: [3H]estrone-3-sulfate and [3H]pravastatin substrates	no inhibition
Cc1ccccc1-c1nc(-c2ccc(F)cc2)c(-c2ccncc2)[nH]1	CSNK1D	inhibitor			0.0381 ± 0.0062 µM
COCC(=O)N1CCC[C@H](C(=O)NCc2nc(-c3ccc(C#N)cc3)cs2)C1	uncharacterized protein (Plasmodium falciparum, UniProt A0A5K1K7U1+Q8I261+Q8IJT1)	Suc-LLVY-AMC		together with: WLW-vs 0.5 µM	0.047 ± 0.011 µM
CC(C)C[C@H](NC(=O)c1ccc(-c2ccccc2)nc1)C(=O)N[C@@H](CC(C)C)C(=O)N[C@H](/C=C/S(C)(=O)=O)Cc1ccc(CN)cc1	PSMB5	competitive ABPP	Raji cell lysate		4.47 µM
CC1CC(C)CN(c2ccc(C=NNc3nc(-c4ccccc4)cs3)cc2)C1 (stereo not drawn)	alpha-glucosidase	enzyme activity, inhibitor		together with: p-nitrophenyl-alpha-D-glucopyranoside	9.36 µM
CCc1oc2ccccc2c1C(=O)c1cc(I)c(O)c(I)c1	CYP2E1	p-nitrophenol hydroxylation, inhibitor	baculosomes	10 min, with additive 1 µM	2.5 µM

Excerpt of the above:
SMILES	target	assay	system	setting	IC50
Cc1ccccc1-c1nc(-c2ccc(F)cc2)c(-c2ccncc2)[nH]1	CSNK1D	inhibitor			0.0381 ± 0.0062 µM
CCOC(=O)C1CCCN1C(=O)c1ccc(NCc2cnc3nc(N)nc(N)c3n2)cc1 (stereo not drawn)	Pteridine reductase 1 (Leishmania major, UniProt Q01782)			estimated	> 100 µM
CCCCN(NC(=O)[C@H](CC(C)C)NC(=O)[C@H](CC(C)C)NC(=O)OCc1ccccc1)C(=O)C(C)=O	Proteasome component C5/PSMB5	β5 chymotrypsin-like activity, inhibitor		together with: Suc-LLVY-AMC 100 µM	15.1 ± 3.6 µM
CC1CC(C)CN(c2ccc(C=NNc3nc(-c4ccccc4)cs3)cc2)C1 (stereo not drawn)	alpha-glucosidase	enzyme activity, inhibitor		together with: p-nitrophenyl-alpha-D-glucopyranoside	9.36 µM
Fc1ccc(-c2nc(-c3c(F)cccc3F)[nH]c2-c2ccncc2)cc1	CSNK1D	inhibitor			0.0212 ± 0.0024 µM
Cc1cc(OC(C)C)ccc1C(=O)C(C)(C)NC(=O)c1sccc1C	cytochrome bc1 complex (Corynespora cassiicola, UniProt A0A2T2NJU0+A0A2T2P1V1+A0A2T2PCF5)	succinate-cytochrome c reductase activity	Corynespora cassiicola, mitochondrial fraction	25 °C	0.00195 µM
COc1cccc(OC)c1-c1nc(-c2ccc(F)cc2)c(-c2ccncc2)[nH]1	CSNK1D	inhibitor			0.298 ± 0.0279 µM
